# Measurements from different studies.
# Numbered parts are unrelated; each lists some results of a single study.

# Study 1
# Target: Centromere-binding protein 1, full length, N-terminal tag (CBF1, Saccharomyces cerevisiae, UniProt P17106, residues 1-351)
# UniProt P17106, sequence (whole entry, looked up): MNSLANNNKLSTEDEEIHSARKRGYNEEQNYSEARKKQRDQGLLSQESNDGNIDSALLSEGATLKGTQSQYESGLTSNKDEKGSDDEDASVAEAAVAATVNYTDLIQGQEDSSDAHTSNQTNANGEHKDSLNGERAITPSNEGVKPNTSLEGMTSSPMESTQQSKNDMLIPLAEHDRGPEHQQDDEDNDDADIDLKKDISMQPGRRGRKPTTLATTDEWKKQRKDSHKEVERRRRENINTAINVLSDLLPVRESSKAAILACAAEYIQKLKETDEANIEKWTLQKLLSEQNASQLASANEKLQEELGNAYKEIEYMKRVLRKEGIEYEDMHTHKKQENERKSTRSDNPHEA
# Method: protein-binding microarray
# Form: double-stranded DNA, one strand shown
# Matrix: in vitro
# Concentration: 0.8 µM
# Notes: whole 60-bp probe, no competitor
# Reading: higher = stronger binding
# All sequences stand within: … GTCTTGATTCGCTTGACGCTGCTG
Strand,fluorescence intensity [a.u.]
CCTAACTACTATAATCAGGTATCATAGCTTCGTACA,502
CTACTTTAGTACGGTCACCCCATCTACAAGCATTTC,582
GAACATTTATAAAGATGTCACATGGACCACTATTAG,3320
CTAGGTCTTCTTCATCACGCCCATATTCATTGTTTC,663
GAACAGAAGGTCTACCACATGTGTTTTGAATATTAG,698
CCTAACTACTATACACACGTGAAATAGCTTCGTACA,1760
GAAGTTCTGTTTACTGGTGACAAGAATTAAAAATAG,632
CCTAACTACTATAGTCACATAAAATAGCTTCGTACA,548
CTATGAGTGGAGTGTCACCTCAGACGACGTGTCTTC,900
TGTACGAAGCTATCAATCACCAGTATAGTAGTTAGG,539
GAATGAGATTTAATGCACGTTATGTTTCGTTCTTAG,642
CTATAGCTTCATCCAGGTGAGCCCGCAAACATTTTC,544

# Study 2
# Target: Histone acetyltransferase KAT6A, winged helix 2, GST fusion (KAT6A, Homo sapiens, UniProt Q92794, residues 85-181)
# Method: protein binding microarray
# Form: double-stranded DNA, one strand shown
# Matrix: in vitro
# Concentration: not given
# Notes: 8-mer, flanks averaged, mean of 2 arrays, mostly near background
# Relative to: not given
# Reading: higher = stronger binding
# Construct (chain): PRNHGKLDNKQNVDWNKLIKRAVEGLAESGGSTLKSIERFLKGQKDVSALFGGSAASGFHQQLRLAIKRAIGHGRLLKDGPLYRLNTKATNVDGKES
Strand,E-score
ATCGCTAG,0.0716
AGTGGTTC,-0.14
CACCAGTC,-0.18
GAAGGCGA,0.0641
AACAATCA,0.072
AGTTTATA,0.0126
GTTTAGTA,-0.0343
CTCGCCCA,0.164
AGTCACAT,-0.164
TAACCGGA,-0.114
GCTCTCCA,-0.151
ACCCTCTA,-0.183
TCCAATAA,0.046
GAGTTCGA,0.0636

# Study 3
# Target: Interferon regulatory factor 5, full length, phosphomimetic (IRF5, Homo sapiens, UniProt Q13568-2, residues 1-514, S451D/S453D/S456D/S462D)
# Method: protein-binding microarray
# Form: double-stranded DNA, one strand shown
# Matrix: in vitro
# Concentration: 940 nM top
# Notes: 60-bp whole probe
# With: salmon DNA 0.4 mg/ml
# Relative to: random background probes
# Reading: higher = stronger binding
# All sequences stand within: GCCTAGCAC … GTCTTGATTCGCTTGACGCTGCTG
Strand,fitted relative affinity [z-score]
TTAGAATCCAGTTTCGATTAGTGCTAG,9.03
TTACGTATCGGTTTCGGTTAGTGCTAG,12.2
TTCGGTTTCGGTTCCGGTTAGTGCTAG,15.2
TCAGTTTTCATTTTCTGACTGTGCTAG,1.98
TTAAGACTGCTTCTCCTTTAGTGCTAG,-0.0746
CTTTATGTACTCTCTCCATGTGTGCTA,1.22
CTGAGTCCCTATCTCCTCACGTGCTAG,0.447
GACGGTTTCCTTATCCTGAGGTGCTAG,1.07
TCATTTTCGTTTTTATTACTGTGCTAG,3.75
TTAGGTATGCTTTTCCTTTAGTGCTAG,-0.344
GACGATCTCAGTCCCGAGACGTGCTAG,0.406
GACGCACTGGACTTTCGGGACGTGCTA,0.408
TTAGATGTCGGGTTTCGATTAGTGCTA,4.85
TTAGGTTTCGGTATCGATTAGTGCTAG,14.8
TTAGGTTTCGGGACTGGGGTAGTGCTA,8.54
TTAGAACTGGGGACTGGATTTGTGCTA,-0.139

# Further values, each from its own experiment
Substance,target,assay,system,conditions,scale,endpoint,value
"PhoQ, residues 284 288 289 292 302 303 SMYGEC","PhoP, residues 12 14 15 18 19 NQFFI (Escherichia coli, UniProt P23836)","Sort-seq, item: YFP reporter",E. coli,"PhoQ-PhoP variant library, with: 10 µM Mg2+","relative to: high Mg2+ state, higher = stronger signaling",fold induction,3.1

# For quick reference, copied from above (study 2):
Strand,E-score
ATCGCTAG,0.0716
CACCAGTC,-0.18
GCTCTCCA,-0.151
AACAATCA,0.072
AGTCACAT,-0.164
GAAGGCGA,0.0641
